Assay results gathered from unrelated publications.
Numbered parts are unrelated; each lists some results of a single study.

Set 1 — method: competition protein-binding microarray; form: double-stranded DNA, one strand shown; medium: in vitro; concentration: 2 µM; added: Pho4 competitor, 0.05 µM; direction: higher = stronger binding
Target: Centromere-binding protein 1, full length, His-tagged (CBF1, Saccharomyces cerevisiae, UniProt P17106, residues 1-351)
Chain of UniProt P17106 (whole entry, looked up): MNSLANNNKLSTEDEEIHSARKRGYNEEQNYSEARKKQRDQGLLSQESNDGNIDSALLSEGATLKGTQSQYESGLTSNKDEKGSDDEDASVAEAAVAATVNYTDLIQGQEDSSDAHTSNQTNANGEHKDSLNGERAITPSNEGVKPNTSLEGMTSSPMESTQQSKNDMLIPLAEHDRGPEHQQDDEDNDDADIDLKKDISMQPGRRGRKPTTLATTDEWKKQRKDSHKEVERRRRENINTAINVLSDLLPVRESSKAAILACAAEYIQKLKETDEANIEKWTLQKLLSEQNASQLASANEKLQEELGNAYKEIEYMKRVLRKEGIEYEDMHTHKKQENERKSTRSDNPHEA
Setting: whole 60-bp probe, lowest competitor level
Oligonucleotide	fluorescence intensity [a.u.]
CTTTCCCGATCTTGGAAGGTGGGTGTAGCACATTTGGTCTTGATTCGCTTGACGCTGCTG	72.3
GTTGGAGATAGTGTAACCGTGACTCGATTTTTCAAGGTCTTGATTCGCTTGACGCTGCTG	190
CGTCCTAGTGATTGCAACGTGGGTGCCATGAGGAAGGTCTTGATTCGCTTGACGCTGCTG	113
TTACAGGTCGTCTTCCACGTGGTGAGTATCAAAGTAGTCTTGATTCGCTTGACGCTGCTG	773
GTCTTGTCTCATTGTAGTGTGGGTGTCCCCACTTCAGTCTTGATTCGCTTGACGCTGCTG	86.8
ATTCGCATCTCTGGACACGTGCTTTATGTAGTTGACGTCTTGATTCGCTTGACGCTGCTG	2590
CATACCCAACCTTGACTTGTGGGTGAAGATATTTGTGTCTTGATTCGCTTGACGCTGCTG	74.6
AGAAAGTCTTGTAACCAGATGGTGACAAAAACTTGGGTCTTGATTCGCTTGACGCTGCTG	93.2
ATTTTTTTAAAGAATCGTGTGGTAAACAAGCTTCCAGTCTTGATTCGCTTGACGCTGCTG	75.7
CAATACCAGGACCTTTACGTGCAAATTTAGAGCGAAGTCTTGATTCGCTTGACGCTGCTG	61.9
TGACAGAAAACTTAGATCGTGACGGCAAATTAAACGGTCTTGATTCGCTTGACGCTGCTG	256
ATGGTTCTAGCGAGTCACGTGCAAATTTTTAAAAATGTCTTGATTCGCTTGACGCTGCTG	11900
GAACTTGTGCTGTGCCAGATTGAATTTTGAAAGTACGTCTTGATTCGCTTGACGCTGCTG	84.7
ACATATTTTAGAAAACACGTGAAGGATACGTAAATAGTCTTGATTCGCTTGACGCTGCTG	1760
AAAGCGGTAATTTGTAGAGTGGGTGCAGATATCTATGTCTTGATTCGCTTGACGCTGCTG	88.1
GTCTTGTCTCATTGGGTAGTGGGTGTCCCCACTTCAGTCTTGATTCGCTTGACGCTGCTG	92.7
GAGGCAAACCATCACCATGTGGTGGTTTCAACATGAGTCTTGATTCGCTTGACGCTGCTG	91.9
AAATTACTAAGTTTTCACGTGCCATACCCCGTATGAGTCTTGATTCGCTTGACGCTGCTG	1560
TTCCATCCCACATTCCTCGTGTTGGATTGGCTGCAAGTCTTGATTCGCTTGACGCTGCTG	80.9
AAAGCGGTAATTTTACACGTGTTTTCACATATCTATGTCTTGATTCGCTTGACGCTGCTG	1530
AATCGAAAAATTTAGCACGTGGGACGGTAAGCATAAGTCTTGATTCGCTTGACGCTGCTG	1710
TGGCGTACGACGACTCATGTGTGTTAGATTGGGACAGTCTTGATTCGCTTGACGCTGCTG	61.7
CTTCTGTAAATTTGTCACTTAACTTGACGCGCCCCGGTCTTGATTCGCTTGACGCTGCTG	82.8
AAAAATTTTGAATGTCCCGTGACAAACAAAACCATTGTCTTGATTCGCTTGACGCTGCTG	2070

Set 2 — method: RNA Bind-n-Seq; form: RNA; medium: in vitro; concentration: 365 nM; baseline: no-protein control; direction: higher = stronger binding
Target: RNA binding protein fox-1 homolog 2, RRM domain, GST-SBP tag (RBFOX2, Homo sapiens, UniProt O43251-10, residues 100-194)
Setting: natural RNA segment, single round, ends assumed
Residues (chain): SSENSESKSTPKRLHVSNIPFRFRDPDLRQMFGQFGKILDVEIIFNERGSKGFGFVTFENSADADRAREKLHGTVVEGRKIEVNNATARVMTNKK
Oligonucleotide	RBNS enrichment (R)
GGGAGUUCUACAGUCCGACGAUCUGUUUAUAUUCUAAUGUAACCAUAUACCAUAACUAAAUAAAAGUUUGGCUACUUGCACUAAUCUUCCAAAUAGCUGCCUCAAUUUCCAUUAUUAAUAUUUCGGACUCUUCUGGAAUUCUCGGGUGCCAA	0.375
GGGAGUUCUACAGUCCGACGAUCGCAUGUGACUGUGAUGCUUUCCAGUCACAUUCAUCACGCACUCAGACCUGUGGCCUGGUGGGACCAGGGCUUCAGGAGCCACAGGAUGGUACAAGCCUCGACAGACACGUUGGAAUUCUCGGGUGCCAA	0.685
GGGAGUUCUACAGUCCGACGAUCCUUUUCUACAGACCUCAUCACUGGAUUUGCCAACUAGAAUUCGAUUUCCUGUCAUAGGAAGCUCCUUGGAAGAAGGGAUGGGGGGAUGAGAUCAUGUUUACAGACCUGUUUGGAAUUCUCGGGUGCCAA	0.399
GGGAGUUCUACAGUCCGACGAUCAGAUAUCUUUCCCAAACUUGGGGUAAAACCCAUGGUUAUGUGGAACAUAACUGUUCUUAAAAAGUCAAUUAUAAUUUGUAACUCACAUCCUUUGAGCUAAACUAAAUUAAUGGAAUUCUCGGGUGCCAA	0.267
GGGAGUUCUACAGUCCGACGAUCACUUGGGGAGGAAGAGGCCUGCUGUGGGGGCAUCGGAGCCAGCCAUGUAAGAAUCAGAGCUGCUCCUUCCUGUGAAUCCUAGGUGGCCCUAUGUCUUCUGUGGAGUUACAUGGAAUUCUCGGGUGCCAA	0.352
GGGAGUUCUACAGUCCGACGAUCUUCUGGGGGCUACCAAAACACCCCUUCUGGAGUAGAAGCUGCUGGAAGGCAGGCCUGAGCCAUUCACCACGGACAGGAAGAGCAGCUCUGGCUAUCACCACUGGCCUCUGUGGAAUUCUCGGGUGCCAA	0.168
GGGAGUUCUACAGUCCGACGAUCCUACAAACUGUUACAACGUCACACAAUGAAGGCACAAAGUCCAACUUUCAAAGGGUGUAGGACUCCAUACUCAGUGACAGGGCAGGAAGAGCCAAAGAUAACCACAGCCAUGGAAUUCUCGGGUGCCAA	0.629
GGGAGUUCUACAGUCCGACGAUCAUGCUACUGUCUAAGCGCAAAGUCCCUCAUCCUGAAGUAGACUAGAGCCCGGCCACAAAUUCUGAGGAAAAACAAAAACUAAAGGAUGAACGAACGAACGAACGAAUGAAUGGAAUUCUCGGGUGCCAA	0.437
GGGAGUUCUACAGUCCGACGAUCAACCGUAGCAGCAUGCGAAGCAGGGCUGUGAACUAUCACCACACAGUGCAUUGUCCCGUGGAGGUGUGACACGGGAGACACACGUGUGGAUCAUGUGAUCAUUGUGAACAUGGAAUUCUCGGGUGCCAA	4.49
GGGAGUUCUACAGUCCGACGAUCAGUCCACCCCCUAGACAGCAAUGCCCUCUGGACUUGAUCCUGAGCCUAAUAAACCUGUGUGCACUCCUUUAGGUCCCAGCACUUUCUUCCUAUGGGUGGUCCAGACAAAAUGGAAUUCUCGGGUGCCAA	0.425
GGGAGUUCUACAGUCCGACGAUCAACCAAAUGUCCCAGACUCUCUUCAUGCCUCAGCCUUGCAGUGUAGCAUAGGUCUCUCUCUGCACAGUGUUGGUUCCUCCAGCCUAACCUUUGGCUUUGGGAAGGAAGAGUGGAAUUCUCGGGUGCCAA	0.372
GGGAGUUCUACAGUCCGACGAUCCUUCCUCAACUUAGUGGCAAAGCCCUGUAUGGAUACUUGUAGGUGCGGGUGAUCCUCAAGGCCAUGCUGCUUUCUGAGUUGUUCUUGUUGCUUUGUUCAUAAUGUGGUUAUGGAAUUCUCGGGUGCCAA	0.47

Set 3 — method: protein-binding microarray; form: double-stranded DNA, one strand shown; medium: in vitro; concentration: 2540 nM top; setting: 60-bp whole probe; added: salmon DNA 0.4 mg/ml; baseline: random background probes; direction: higher = stronger binding; all sequences stand within: GCCTAGCAC … GTCTTGATTCGCTTGACGCTGCTG
Target: Interferon regulatory factor 3, full length, phosphomimetic (IRF3, Homo sapiens, UniProt Q14653, residues 1-427, S386D/S396D/S398D/S402D/T404D/S405D)
Residues (chain): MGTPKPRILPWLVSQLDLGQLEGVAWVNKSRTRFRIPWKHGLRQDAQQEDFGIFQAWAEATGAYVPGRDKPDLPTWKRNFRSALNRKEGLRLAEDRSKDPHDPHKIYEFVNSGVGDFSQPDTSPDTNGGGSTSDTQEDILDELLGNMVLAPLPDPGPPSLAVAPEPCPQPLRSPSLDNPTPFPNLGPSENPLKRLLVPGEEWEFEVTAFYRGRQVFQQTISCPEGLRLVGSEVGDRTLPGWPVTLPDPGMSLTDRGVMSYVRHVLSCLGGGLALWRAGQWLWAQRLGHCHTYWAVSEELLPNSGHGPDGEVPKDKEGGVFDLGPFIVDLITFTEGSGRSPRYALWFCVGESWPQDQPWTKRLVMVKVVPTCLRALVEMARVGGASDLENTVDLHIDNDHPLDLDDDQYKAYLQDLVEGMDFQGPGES
Oligonucleotide	fitted relative affinity [z-score]
TTAGGTTTCCTTTCCCTATAGTGCTAG	10.8
TTAGGACTGCTTCACCTTTAGTGCTAG	-0.122
TCAGTTTTCTTTTCATTACTGTGCTAG	6.94
TTAGATTTCAGTCCCGATTAGTGCTAG	1.04
AGTGTCATGTTTCTATGGGCGTGCTAG	1.33
TCAAGCTTGGGTCTGTGACTGTGCTAG	-1.09
GACGGACTGCTTTTCCTGAAGTGCTAG	-0.211
GACGATCTGGGGTATCGAGACGTGCTA	-0.347
GATTTCTTCCCTGTGAAAACGTGCTAG	1.36
GACGTTCTCCTTTTCCTGACGTGCTAG	4.3
TCAGATTTCCCCACCATACTGTGCTAG	1.27
TAACTTTTTTTTTTCCCTGAGTGCTAG	1.18
TTAGCTATCAGTATCGATTAGTGCTAG	1.57
GTCGGACTGGGTATCGGGACGTGCTAG	0.155
GACGGACTGGCCTATCGGGACGTGCTA	-0.774
GACGGTATCTTTTTCCTGACGTGCTAG	2.42
GACGAACTGAGTATCGGGACGTGCTAG	0.379
GGACACGGATGCGGTCTGCCGTGCTAG	-0.278
GACGGTTTCGGTCTCGAGACGTGCTAG	8.14
CTGCATTTTTTTTTTCTACTGTGCTAG	0.683
GACTATTTCAGACTGGAGACGTGCTAG	0.74
TTAGGTCTGGGTCTCGGTTAGTGCTAG	-0.687
TTACGACTGCTACTGCTTTAGTGCTAG	-0.584
TCAGGAAACCGGAAAGGCACTGTGCTA	0.304
GGATGTTGCAAATATTGCTAGGTGCTA	0.068

Set 4 — method: universal PBM; form: double-stranded DNA, one strand shown; medium: in vitro; concentration: 600 nM; direction: higher = stronger binding
Target: Sal-like protein 4, full length isoform A (SALL4, Homo sapiens, UniProt Q9UJQ4, residues 1-1053)
Chain of UniProt Q9UJQ4 (whole entry, looked up): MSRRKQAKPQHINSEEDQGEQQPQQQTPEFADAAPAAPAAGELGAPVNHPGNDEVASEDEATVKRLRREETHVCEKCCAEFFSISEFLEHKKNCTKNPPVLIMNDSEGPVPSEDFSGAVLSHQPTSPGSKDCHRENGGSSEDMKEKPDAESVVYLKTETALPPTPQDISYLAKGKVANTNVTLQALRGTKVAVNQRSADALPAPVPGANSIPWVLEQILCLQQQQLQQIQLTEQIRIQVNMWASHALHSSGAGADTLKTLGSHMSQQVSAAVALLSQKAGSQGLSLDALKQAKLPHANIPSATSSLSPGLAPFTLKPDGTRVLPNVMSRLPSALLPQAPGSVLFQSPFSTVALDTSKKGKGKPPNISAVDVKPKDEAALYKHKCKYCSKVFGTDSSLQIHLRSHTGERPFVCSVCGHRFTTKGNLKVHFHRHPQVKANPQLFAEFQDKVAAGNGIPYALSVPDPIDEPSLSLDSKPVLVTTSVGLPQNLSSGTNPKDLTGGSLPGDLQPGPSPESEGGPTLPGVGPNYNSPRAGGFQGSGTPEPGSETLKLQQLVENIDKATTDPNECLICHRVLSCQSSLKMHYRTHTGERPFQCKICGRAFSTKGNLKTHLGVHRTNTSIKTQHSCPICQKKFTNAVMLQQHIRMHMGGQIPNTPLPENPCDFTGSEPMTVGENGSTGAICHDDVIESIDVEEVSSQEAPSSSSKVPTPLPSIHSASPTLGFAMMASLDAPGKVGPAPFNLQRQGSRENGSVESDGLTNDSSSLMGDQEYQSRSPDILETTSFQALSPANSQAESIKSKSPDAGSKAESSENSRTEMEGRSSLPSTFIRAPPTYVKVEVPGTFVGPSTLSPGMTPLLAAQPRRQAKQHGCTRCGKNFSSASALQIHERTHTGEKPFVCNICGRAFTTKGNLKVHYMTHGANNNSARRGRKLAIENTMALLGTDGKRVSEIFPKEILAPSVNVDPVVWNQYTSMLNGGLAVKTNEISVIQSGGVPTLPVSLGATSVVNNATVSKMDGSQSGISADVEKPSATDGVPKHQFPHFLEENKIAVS
Setting: 8-mer, flanks averaged, mean of replicates
Oligonucleotide	E-score
GTGTTCAA	0.0991
CCGGTGTA	-0.208
ACTGTGAA	0.0761
CAGAACGC	-0.246
GTACGCGA	-0.042
AAGGCTAT	0.0613
CTGAATAC	0.085
GAGCCAGA	-0.26
AGAGAATC	-0.0362
CGAAGGCA	-0.0845
TAGCCCAA	-0.0686
CTAAGGTA	0.0228
CCCGCCTA	-0.0494
ACTTGGCT	-0.145
AGACGGTC	-0.223
AGCATGTG	0.0683
ATGCAAGA	0.239
CGAGGGAC	-0.359
ACCAAGAT	0.0835
GAACCGTA	-0.239
AAACCTAA	0.109
CCACCCCG	-0.16
CTCGGTCA	-0.061
ATGCGTTC	0.0621
CTCTACAC	-0.103
